Assay results pooled from the literature.
Lines come from different studies, so protocols differ.

CC[C@H](C)[C@H](NC(=O)[C@H](CC(C)C)NC(=O)[C@H](Cc1c[nH]c2ccccc12)NC(=O)[C@H](CCC(N)=O)NC(=O)[C@@H](NC(=O)[C@H](Cc1ccccc1)NC(=O)[C@H](C)NC(=O)[C@H](CCCCNC(=O)COCCOCCNC(=O)COCCOCCNC(=O)CC[C@H](NC(=O)CCCCCCCCCCCCCCCCCCC(=O)O)C(=O)O)NC(=O)[C@H](CCC(N)=O)NC(=O)[C@H](C)NC(=O)[C@@H](NC(=O)[C@H](CCCCN)NC(=O)[C@H](CC(=O)O)NC(=O)[C@H](CC(C)C)NC(=O)C(C)(C)NC(=O)[C@@H](NC(=O)[C@H](CO)NC(=O)[C@H](Cc1ccc(O)cc1)NC(=O)[C@H](CC(=O)O)NC(=O)[C@H](CO)NC(=O)[C@@H](NC(=O)[C@H](Cc1ccccc1)NC(=O)[C@@H](NC(=O)CNC(=O)[C@H](CCC(=O)O)NC(=O)C(C)(C)NC(=O)[C@@H](N)Cc1ccc(O)cc1)[C@@H](C)O)[C@@H](C)O)[C@@H](C)CC)[C@@H](C)CC)C(C)C)C(=O)N[C@@H](C)C(=O)NCC(=O)NCC(=O)N1CCC[C@H]1C(=O)N[C@@H](CO)C(=O)N[C@@H](CO)C(=O)NCC(=O)N[C@@H](C)C(=O)N1CCC[C@H]1C(=O)N1CCC[C@H]1C(=O)N1CCC[C@H]1C(=O)N[C@@H](CO)C(N)=O: “diastolic blood pressure change” 2.09 mmHg (healthy subjects, single ascending dose; 0.5 mg, day 29; reference: baseline).
For `PNFSKLINIIIWFLL`, the responding donors was 8% (human CD4 T cells; AIM; peptide).
For Cn1cnc(Cn2c(=O)[nH]/c(=N\c3cc4cn(C)nc4cc3Cl)n(Cc3cc(F)c(F)cc3F)c2=O)n1, “anaemia TEAE, Mild severity” read 0% (human, moderate renal impairment; oral, 375 mg).
`VFAQVKQIYKTPPIK` has a responding donors of 8% (human CD4 T cells; AIM; peptide).
With CC(=O)c1ccc(NC2=C(Cl)C(=O)c3ccccc3C2=O)cc1 the inhibition was -6.73% (Replicase polyprotein 1ab, main protease (rep, Severe acute respiratory syndrome coronavirus 2, UniProt P0DTD1); viral replication, Gluc reporter; SARS-CoV-2; 20 µM).
With Nc1ncnc2c([C@@H]3N[C@H](CO)[C@@H](O)[C@H]3O)c[nH]c12 the inhibition was 85.6% (Junin virus; viral replication; HeLa, Romero; 100 µM).
